Results from different studies.
Numbered parts are unrelated; each lists some results of a single study. Positions count from the first letter of the parent shown.

Set 1 — method: RNA Bind-n-Seq; molecule type: RNA; medium: in vitro; tested at: not given; notes: RNA with constant flanks, ends assumed; baseline: input RNA pool; direction: higher = stronger binding
Target: RING finger protein unkempt homolog, zinc fingers 1-6, GST-SBP tag (UNK, Homo sapiens, UniProt Q9C0B0, residues 30-357)
UniProt Q9C0B0, sequence (30-357, looked up): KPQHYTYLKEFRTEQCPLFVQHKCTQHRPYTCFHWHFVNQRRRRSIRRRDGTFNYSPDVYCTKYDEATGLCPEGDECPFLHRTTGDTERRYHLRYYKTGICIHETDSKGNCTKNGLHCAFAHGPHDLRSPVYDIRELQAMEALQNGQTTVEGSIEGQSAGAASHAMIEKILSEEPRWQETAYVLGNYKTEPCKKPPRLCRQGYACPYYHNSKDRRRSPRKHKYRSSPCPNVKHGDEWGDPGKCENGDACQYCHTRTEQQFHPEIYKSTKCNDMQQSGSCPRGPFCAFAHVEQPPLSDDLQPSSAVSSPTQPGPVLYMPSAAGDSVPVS
Constant ends, left off below: GGGAGUUCUACAGUCCGACGAUC … CAACAGAGGAUUGAGCAUCA
Oligonucleotide | bound/input enrichment
ACAAUUGCUGUAAAACAAAGGUAAUUACUUAAGUGGUGGUGCAGGCCUUUAAUCCCAGCACUCCGAAGGCAGAGGAAGGUGGAUCUCUGAGAUCAAGGCCAGCCUGGUCUACACAGUGAG | 0.31 ratio
AAUGUCAUUGAUGCCAAUUUCUGUAUGAAAGGAGAAGACUUGGACUCUCAGGUUGGAGUUACCGAUUUUUCAAUGUAUCUCAAGGACGGGAACAGCAGUAAAGGUACUGAAGGAGACGGU | 0.192 ratio
ACUAUCGUUCCUGGCUAUGAUUUCUUGGUGAAUUCUGUGUGGCCAGAAAUAGUUCGAGGCCCCGAGGAAAAGCUACCCUCGCUCUUCAACCCUGGGGACCCAGACGCCUUUCACCAGAAA | 0.184 ratio
UUAUGUGCCUGUAUUUUUUUAAAAUGGUACACCAGAAAAGGACUGGCAGUCUACUUCUACCACCGUUAAACUUCACCCUCUUUAAUUUCACAACAUAUUCUUUGGAAGCAGGAAGAAAUG | 0.118 ratio
UCUGAGAAUUACAAACAGAAGAUAGAAAGAAGUCUUAAAGCUGGUACAGUUAAAGAAUGUAUCCGUCUCAGAAGCUGUGUAUGUUUAUGUGAUAGAAUCUAAAUAAAAUACAGACAUCUA | 0.256 ratio
GAUCAAGCCAGAUCAGCAUUCUCUAACUUGUUUGGUGGGGAACCAUUGUCAUACACCCGGUUCCGCCUUGCUCGGCAAGUAGAUGGAGAUAACAGUCAUGUGGAGAUGAAACUGGCUGCA | 0.168 ratio
CUUAGUAGAUAAUUUGGGUGGUACUGAAGCACCUAUUAUCUCUUAUUUCUGUUCUCCCGGCUGUUAUGUUAAUUCCUCUGAUAUGUUAAAGUAAUGGGUGAGACCAGAAAAAGAAAUUUC | 0.256 ratio
ACAGCCAUGGCAACUAGUCUCACGAACGUAGGAAAUUCAUUUAGUGGCCCACCUAAUCCUUCCGUGUCUAGAUCUAGUAAGUUUCAGAACUCAUCAGUAGAAGAUGAUGAUGACGUUGUU | 11 ratio
GUUGAUUCCCUCAACGGGUUAGUUUACGUAGCCCAAAGAGGGGAUAACAUCCCCAAGGUAUCCGUGUUCUCAGAGGAUGGCUAUUUCCUACGAGCCUGGAAUUAUACAGUUGACACACCC | 0.123 ratio
GAGAAAGAAAUCCCACCAAAGGAGAUGGAGAAAUCAAAAAUUAAACGACUGUAUAAAUUAUCCGAGAUCUGGAUCGAGUUUGGGCGCAUCAAACUCCUUCAAGGUUAUCAUCCGAACGAC | 0.34 ratio
CAGCUGUGUCUUCUAAAGUGGAUCAGUGAGAGAGGCUCCUGGACCUGCGAGCUGUGCUGUUACCGAUACCACGUCACAGCCAUUAAAAUGAAGCAACCUUGCCAGUGGCAGAGCAUUUCU | 0.12 ratio

Set 2 — method: universal PBM; molecule type: double-stranded DNA, one strand shown; medium: in vitro; tested at: 600 nM; direction: higher = stronger binding
Target: Sal-like protein 4, full length isoform A (SALL4, Homo sapiens, UniProt Q9UJQ4, residues 1-1053)
UniProt Q9UJQ4, sequence (whole entry, looked up): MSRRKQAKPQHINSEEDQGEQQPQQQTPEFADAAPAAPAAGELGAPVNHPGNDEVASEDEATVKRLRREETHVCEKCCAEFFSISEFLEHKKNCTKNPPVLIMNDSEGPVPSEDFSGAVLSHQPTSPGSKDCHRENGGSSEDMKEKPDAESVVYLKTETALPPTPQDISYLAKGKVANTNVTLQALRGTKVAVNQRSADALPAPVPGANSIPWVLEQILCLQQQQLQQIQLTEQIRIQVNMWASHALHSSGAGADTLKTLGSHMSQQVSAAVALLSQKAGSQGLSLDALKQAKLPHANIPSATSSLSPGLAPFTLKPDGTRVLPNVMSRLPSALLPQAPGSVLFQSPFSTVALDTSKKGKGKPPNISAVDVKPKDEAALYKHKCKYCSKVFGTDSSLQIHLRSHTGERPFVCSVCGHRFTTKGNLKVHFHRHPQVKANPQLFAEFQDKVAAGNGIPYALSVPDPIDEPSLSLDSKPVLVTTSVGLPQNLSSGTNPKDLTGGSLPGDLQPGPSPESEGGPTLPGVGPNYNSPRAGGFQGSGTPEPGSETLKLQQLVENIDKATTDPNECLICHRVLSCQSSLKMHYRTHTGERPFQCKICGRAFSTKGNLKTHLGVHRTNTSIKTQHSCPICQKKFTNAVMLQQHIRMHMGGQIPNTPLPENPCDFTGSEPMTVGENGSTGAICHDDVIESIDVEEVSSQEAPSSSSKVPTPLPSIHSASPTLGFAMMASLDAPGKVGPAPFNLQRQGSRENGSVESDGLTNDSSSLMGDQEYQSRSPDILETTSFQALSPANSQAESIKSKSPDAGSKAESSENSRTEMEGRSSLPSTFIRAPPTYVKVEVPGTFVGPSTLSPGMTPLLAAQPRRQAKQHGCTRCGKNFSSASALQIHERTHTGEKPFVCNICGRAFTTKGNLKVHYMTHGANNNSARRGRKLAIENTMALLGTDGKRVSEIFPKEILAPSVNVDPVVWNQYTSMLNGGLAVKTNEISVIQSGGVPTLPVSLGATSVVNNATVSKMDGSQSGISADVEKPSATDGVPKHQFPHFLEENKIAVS
Notes: 8-mer, flanks averaged, mean of replicates
Oligonucleotide | E-score
CTGGCTGC | -0.327
CGTGCCGA | -0.251
ATCAACAA | 0.241
GGACTCCA | -0.223
GACATGTC | 0.0564
AATCTGCG | -0.0673
AGTTCATC | 0.0301
GCGCAGCA | -0.317
AGCCTGGC | -0.278
CGGGGGGA | -0.374
CTCCACCC | -0.343
AGTCCCCG | -0.251
CTAGAGTA | 0.00387
CGGGCAGA | -0.201
AGCGGCAA | -0.163
ACGTTGTA | 0.0709
AAACGGTT | -0.0943
CAGGTGCG | -0.158
ACCTGGCT | -0.247
TCAACTAA | 0.2
AATCGTGC | 0.073
CTGCCAAA | -0.0702
ATAACTAG | 0.313
GTCGTTGA | -0.0639

Set 3 — method: RNA Bind-n-Seq; molecule type: RNA; medium: in vitro; tested at: 365 nM; baseline: no-protein control; direction: higher = stronger binding
Target: RNA binding protein fox-1 homolog 2, RRM domain, GST-SBP tag (RBFOX2, Homo sapiens, UniProt O43251-10, residues 100-194)
Notes: natural RNA segment, single round, ends assumed
Constant ends, left off below: GGGAGUUCUACAGUCCGACGAUC … UGGAAUUCUCGGGUGCCAA
Residues (chain): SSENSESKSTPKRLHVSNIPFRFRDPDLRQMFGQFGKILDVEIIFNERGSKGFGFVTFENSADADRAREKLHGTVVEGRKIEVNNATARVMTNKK
Oligonucleotide | RBNS enrichment (R)
UGAAGCCAACACCAAAAGAGGGAGCACACCUGUUCCCUACCUCCUGGAAGUGGAGCCAAGUUUCAGGAUUUGCAUCCCAAGAGUCUCUAAGAAUUCUUGCCAUGGUCCUA | 0.539
CAAUGGGGCUACUUUUCUCCUGAAUAGCUCCUCUGGGCUUGUUGCAGUUCUAGUUUUCCCAGUAGUUCCAUGGCAGGUUCAACCUCUCAGUGUCCUGAAAAAUGGAACCA | 0.32
AAGUGAGAGUUUUGGUUAGUAAUCACAGCUGUAAAAUUGAUUUACACUUGUUAAACAUAUUGCCCCUCAAUUUUGCACACUAUAUUCUUGUAUAUUAUUUCAAAUAAAAG | 0.384
AGAAAGCAGUUUUAGAAGGCCAUGACUCAAUUCUUAGGUUUGUAUGCUUAAACAUCUUAGGAAUUUUAAUAUAAAAAGAAAAGGCUUUCCCAUUUGCACUCUAUUUCAAA | 0.699
UUGACGUCGUUUUACAAGAAAACAAUGGGGCUGGUUUUGCUUCCCCGUGCAUGAUUUACUCUUAGAGAUGAUUCAGAGGUCACUUCAUUUUUAUUAAACAGUGAACUUGU | 12.1
CAUGGCUAUUCCAGCACCCCAACCUGUAAUUGCCAAGUCCUCUAAGGUACUAAUUUGUAGCUGCUCUGAAGUAAGGAUUUCGGAUUCAGCUGGUAGGGAAAGACUCUGCA | 1.01
AAAUUUUCCUUAGGCCGCAGAAAUCCUGCACUGUGAGCAUUUCAGAAGAGGUAUGUGAGACCCAGUUCAACGACAGCAUGAUUUUUUAAAUGGCUGUAAGUUAUGAUAAG | 0.673
ACCAGGAGGUGGGACAGACCAUCCCCGUCUUCGCCUUCCUCGGAGCCAUGGUGGCCCUGGCCUUCUUUGUGGUACAGAUCAGCAAGGCCAAGAGCCGGCCGAAGCGGAGG | 0.432
ACGGCCGGCAAGAAUGGAUGUAAAAAUAUCUUGCUGCUUACAUCCAAAUUGCUGGUGGAUAUGGGGCUGAAGGCAGAAGCAGCUGGGAAGGGCAGUAGAGGCGCAAGCUG | 2.04
UUCACUGGAUUUUGGGGUUCCCAGCACCCCAUGUAGAUUUGGGGGUUUCUUUUUGUCUCCCCCACUAUUCAAGGACUCUCCUCUUUACCAAGAAGCACAGAAUUCUGCUG | 0.284
GCAAGAACAAGAACUGUUUAAGGCACCUCUGUUCCCAGCCACUGAAGAGAGACGUCAGAAGAUGUUAGAAUAGGUCAAAGCCAAGGCUCUGGUGGGCUGAGGGAAGGUUU | 0.316
UCCAGCCAUUACAGAGUGAAGGUGCAACCCCAUGUGGGAGCCCCACUAGUGACCACUCCCUGAGAGGCCGCAAUCAGGUGGGAAUGAAAAGGCCUCCUCCAGCGGGGCAG | 0.37

Set 4 — method: protein binding microarray; molecule type: double-stranded DNA, one strand shown; medium: in vitro; tested at: not given; baseline: not given; direction: higher = stronger binding
Target: Histone acetyltransferase KAT6A, winged helix 1, GST fusion (KAT6A, Homo sapiens, UniProt Q92794, residues 1-85)
Notes: 8-mer, flanks averaged, mean of 2 arrays, mostly near background
Residues (chain): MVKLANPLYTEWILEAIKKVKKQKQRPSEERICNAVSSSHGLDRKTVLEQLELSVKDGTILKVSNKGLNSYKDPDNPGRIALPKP
Oligonucleotide | E-score
TCCACGGA | 0.237
CTGGACAC | -0.297
AGGACGGC | 0.319
AATCGTCA | -0.206
GTTTGGGA | -0.246
ACAGGCAA | -0.176
AAGTGAAA | -0.0696
AGGTGTAC | 0.0302
ACGCGTTA | 0.3
AACATAGC | -0.157
CCATATGC | -0.00286
ATCAATGG | -0.193
CGGTACAG | 0.196
ATTATGCA | -0.186
ACGATCTC | -0.109
AGGAGAAG | -0.268
TAGACAAA | -0.169
GAATCACA | -0.0356
GATCTCGC | 0.112
AAGACTTA | -0.2
AGCTGGAC | -0.273
AGGACATG | -0.113
AGTGAAGG | -0.183

Set 5 — target: CREBL2, bZIP domain (human); method: DHFR protein complementation; medium: yeast; baseline: wild-type JUN-FOS pair; direction: higher = stronger binding
Notes: single substitutions, most at no-binding floor
Starting sequence: JUN, bZIP domain (human); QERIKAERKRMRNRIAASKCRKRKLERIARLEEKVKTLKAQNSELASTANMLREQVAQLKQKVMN; partner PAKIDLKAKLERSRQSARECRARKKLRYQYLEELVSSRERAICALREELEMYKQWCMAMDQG
Variant | binding fitness [natural log]
V35A | -1.53
L59P | -1.5
L31Y | -1.44
N42W | -1.56
T37D | -1.51
T37K | -1.52
E32I | -1.46
R30P | -1.33
A29L | -1.47
Q41R | -1.36
L38G | -1.56
S43F | -1.5
E44T | -1.51
S43M | -1.52
L45G | -1.51
V56Q | -1.39
S47M | -1.22
L52P | -1.47
I28W | -1.53
A40P | -1.54
K36A | -1.43
N42A | -1.38
Q55W | -1.59
V35W | -1.38
A29Y | -1.47

Repeated from above (set 3):
Oligonucleotide | RBNS enrichment (R)
CAAUGGGGCUACUUUUCUCCUGAAUAGCUCCUCUGGGCUUGUUGCAGUUCUAGUUUUCCCAGUAGUUCCAUGGCAGGUUCAACCUCUCAGUGUCCUGAAAAAUGGAACCA | 0.32
AAGUGAGAGUUUUGGUUAGUAAUCACAGCUGUAAAAUUGAUUUACACUUGUUAAACAUAUUGCCCCUCAAUUUUGCACACUAUAUUCUUGUAUAUUAUUUCAAAUAAAAG | 0.384
AGAAAGCAGUUUUAGAAGGCCAUGACUCAAUUCUUAGGUUUGUAUGCUUAAACAUCUUAGGAAUUUUAAUAUAAAAAGAAAAGGCUUUCCCAUUUGCACUCUAUUUCAAA | 0.699
UUGACGUCGUUUUACAAGAAAACAAUGGGGCUGGUUUUGCUUCCCCGUGCAUGAUUUACUCUUAGAGAUGAUUCAGAGGUCACUUCAUUUUUAUUAAACAGUGAACUUGU | 12.1
CAUGGCUAUUCCAGCACCCCAACCUGUAAUUGCCAAGUCCUCUAAGGUACUAAUUUGUAGCUGCUCUGAAGUAAGGAUUUCGGAUUCAGCUGGUAGGGAAAGACUCUGCA | 1.01
AAAUUUUCCUUAGGCCGCAGAAAUCCUGCACUGUGAGCAUUUCAGAAGAGGUAUGUGAGACCCAGUUCAACGACAGCAUGAUUUUUUAAAUGGCUGUAAGUUAUGAUAAG | 0.673
ACCAGGAGGUGGGACAGACCAUCCCCGUCUUCGCCUUCCUCGGAGCCAUGGUGGCCCUGGCCUUCUUUGUGGUACAGAUCAGCAAGGCCAAGAGCCGGCCGAAGCGGAGG | 0.432
ACGGCCGGCAAGAAUGGAUGUAAAAAUAUCUUGCUGCUUACAUCCAAAUUGCUGGUGGAUAUGGGGCUGAAGGCAGAAGCAGCUGGGAAGGGCAGUAGAGGCGCAAGCUG | 2.04
UUCACUGGAUUUUGGGGUUCCCAGCACCCCAUGUAGAUUUGGGGGUUUCUUUUUGUCUCCCCCACUAUUCAAGGACUCUCCUCUUUACCAAGAAGCACAGAAUUCUGCUG | 0.284
GCAAGAACAAGAACUGUUUAAGGCACCUCUGUUCCCAGCCACUGAAGAGAGACGUCAGAAGAUGUUAGAAUAGGUCAAAGCCAAGGCUCUGGUGGGCUGAGGGAAGGUUU | 0.316
UCCAGCCAUUACAGAGUGAAGGUGCAACCCCAUGUGGGAGCCCCACUAGUGACCACUCCCUGAGAGGCCGCAAUCAGGUGGGAAUGAAAAGGCCUCCUCCAGCGGGGCAG | 0.37
